Results collected from several papers.
Every numbered part comes from another study and shows a few of its results, in no order. Changes are numbered by the printed parent chain.

Block 1
Target: Ras GTPase-activating protein-binding protein 1, full length (G3BP1, Homo sapiens, UniProt Q13283)
UniProt Q13283, sequence (whole entry, looked up): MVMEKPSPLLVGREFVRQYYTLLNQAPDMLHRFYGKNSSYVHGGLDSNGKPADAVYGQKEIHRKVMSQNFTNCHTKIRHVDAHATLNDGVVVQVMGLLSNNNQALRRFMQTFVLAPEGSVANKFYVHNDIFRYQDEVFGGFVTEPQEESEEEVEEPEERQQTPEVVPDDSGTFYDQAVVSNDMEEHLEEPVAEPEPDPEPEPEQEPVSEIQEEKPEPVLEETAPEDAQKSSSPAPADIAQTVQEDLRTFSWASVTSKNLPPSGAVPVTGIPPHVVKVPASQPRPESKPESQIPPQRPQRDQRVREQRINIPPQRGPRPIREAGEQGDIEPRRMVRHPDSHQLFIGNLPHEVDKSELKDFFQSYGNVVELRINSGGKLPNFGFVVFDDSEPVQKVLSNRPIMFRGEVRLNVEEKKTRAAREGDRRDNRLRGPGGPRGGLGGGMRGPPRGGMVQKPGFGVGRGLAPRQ
Technique: RNA Bind-n-Seq
Form: RNA
Sample: in vitro
Concentration: 200 nM
Setting: whole 134-nt RNA, ends assumed
Added: 150 mM KCl
Baseline: input library
Reading: higher = stronger binding
Constant ends, left off below: GGGAGUUCUACAGUCCGACGAUC … UGGAAUUCUCGGGUGUCAAGG
| Strand | log2 enrichment |
| --- | --- |
| CACAGACAACACGCACCCACACAGACACAGAGGGAAGGGGUUGGGAUGGGGACAGGGUGCAAAGCAGGGCGGGGUAGGACCCCAGCCCCU | 1.69 |
| UGGCCCUGGUGGCAUGCGGGGAGGAAGAGGUGGCCUCAUGGAUCCUGGUGGUCCCGGUGGAAUGUUCAGAGGUGGCCGUGGUGGAGACAG | -0.0265 |
| UUCUUACAUGUGUAAUCUUCUUCUCCUAGGGCGGCAGAACUCAUGACAAGAACAAGCUCUGUGGUGACACUGGAAGUAGCAAAGCAGGGU | 0.381 |
| UAACUUUAGAGGAGGAUCUGAUUGAUAUGGCAGUGGACGUGGAUUUGGGGAUGGCUAUAAUGGGUAUGGAGGAGGACCUGGAGGUGGCAA | 0.602 |
| CCUCAAGUCCUGUGCUACACAUCGUAUGUACCGAAUCGGAGGAAAAAGGUGGAAAGUAUUAUGUUACGCCGUUCGGAUCUGCACUUCCAG | -0.0857 |
| CAAGUCCUGUGCUACACAUCGUAUGUACCGAAUCGGGGAAAAGGAAAAGGAAAAGGAAAGUAUUAUGUUACGCCGUUCGGAUCUGCACUU | -0.759 |
| GCAGGAAGUAAAAACAAAUGGAAAUGCUUCGGAUAGUGGUAGGGGUGGGGGUUGCUAAGGAAAGGGUGGGAUGGGAGUGGGUAAAGAGUU | 0.892 |
| GCAGGAAGUAAAAACAAAUCGAAAUGCUUCGGAUAGUGGCAGGGGUGGGGGUUGCUAAGGAAAGGGUGGGAUGGGAGUGGGUAAAGAGUU | 0.743 |

Block 2
Target: Interferon regulatory factor 5, full length, phosphomimetic (IRF5, Homo sapiens, UniProt Q13568-2, residues 1-514, K96S/S451D/S453D/S456D/S462D)
Technique: protein-binding microarray
Form: double-stranded DNA, one strand shown
Sample: in vitro
Concentration: 250 nM
Setting: 60-bp whole probe
Added: salmon DNA 0.4 mg/ml
Baseline: random background probes
Reading: higher = stronger binding
Constant ends, left off below: GCCTAGCAC … GTCTTGATTCGCTTGACGCTGCTG
| Strand | log fluorescence [z-score] |
| --- | --- |
| TTAGATCTCAGTTTAGATTAGTGCTAG | 0.312 |
| ATAGATTTCAGTTCCGATTAGTGCTAG | 2.54 |
| AAGCTTCTTTTTTATTCTAAAGTGCTA | 1.17 |
| TTAGATTGCGGGTATCGATTAGTGCTA | 3.31 |
| TTAGGTCTGGGGACTGGGTTAGTGCTA | -0.474 |
| TTACGTATCCTTATCCTTTAGTGCTAG | 1.1 |
| TCAGCTTTCTCTTTCACACTGTGCTAG | 4.81 |
| TTAGGTAACCTTCTCCTTTAGTGCTAG | -0.0866 |
| GACGAACTGGGGTTTCGAGAGGTGCTA | 0.958 |
| TCACAAGTTTCACGTCTTACTGTGCTA | 1.83 |
| TTAGGTATCAGACTGGATTAGTGCTAG | 0.169 |
| TCATGCCTGTTTTTCCCACTGTGCTAG | 0.433 |
| GGATATATATCATTTAATTAGTGCTAG | 0.954 |
| TTGGGTATCGGTATCGGTTAGTGCTAG | 9.24 |
| GAAGGACTGCTTCTCCTGACGTGCTAG | -0.244 |
| TCAAATTTTCAATTCCTACTGTGCTAG | 1.39 |
| TTTCCTATGTCATTTACATTGTGCTAG | 2.57 |
| GACGGACTGGGGTTTCGCGACGTGCTA | -0.298 |
| TTAGGTATCCTTCTACTTTAGTGCTAG | 0.314 |
| GAGACTTTGCTCTGTGCATAGGTGCTA | -0.18 |
| GACGATCTCAGACGGGAGACGTGCTAG | -0.364 |
| TTAGATCTCAGTTTCGATTAGTGCTAG | 9.55 |
| TTAGGTATCGACACTGGGTCAGTGCTA | 2.23 |
| TTAGGTTCCCTTTTCCTTTCGTGCTAG | 1.94 |
| TTAGGGATCGGACTGGGTTAGTGCTAG | -0.332 |

Block 3
Target: CCNB1, cyclin fold, Cln2 fusion (human)
Technique: yeast growth competition, sequencing
Sample: yeast
Setting: weak parent motif
Baseline: not given
Reading: higher = stronger binding
Parent: DBF4B docking peptide (human); LGYLYLLLTQSLW
| Variant | normalised enrichment score |
| --- | --- |
| LGYLALLLTQSLW [Y5A] | 0.635 |
| LGYLYLLLTQALW [S11A] | 0.444 |
| LGALYLLLTQSLW [Y3A] | 0.0778 |
| LGYLYLLATQSLW [L8A] | 0.965 |
| LGYLYLLLAQSLW [T9A] | 0.686 |
| LAYLYLLLTQSLW [G2A] | 0.371 |

Block 4
Target: ABI1, truncated, D143A, DHFR fusion (Arabidopsis thaliana)
Technique: DHFR PCA, deep sequencing
Sample: yeast
Setting: methotrexate growth selection, single substitutions
Added: (+)-ABA 200 µM
Baseline: wild-type fitted maximum
Reading: higher = stronger binding
Parent: PYL1, truncated, DHFR fusion (Arabidopsis thaliana); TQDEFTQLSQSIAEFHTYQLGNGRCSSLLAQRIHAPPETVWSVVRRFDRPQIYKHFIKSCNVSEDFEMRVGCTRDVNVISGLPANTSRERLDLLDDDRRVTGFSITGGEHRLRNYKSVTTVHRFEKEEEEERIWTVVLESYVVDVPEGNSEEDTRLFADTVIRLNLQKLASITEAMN
| Variant | relative binding score [%] |
| --- | --- |
| A175R | 100 |
| I12C | 67.9 |
| H110D | 3.33 |
| Q31A | 59 |
| E14W | 62.1 |
| Y53M | 62.6 |
| Y18N | 88.9 |
| D159V | 9.94 |
| N22E | 102 |
| N85F | 101 |
| R88P | 8.29 |
| E174C | 89.1 |
| F157V | 76.5 |
| M68F | 93.5 |
| L166Q | 54.6 |

Block 5
Target: RNA binding protein fox-1 homolog 2, RRM domain, GST-SBP tag (RBFOX2, Homo sapiens, UniProt O43251-10, residues 100-194)
Technique: RNA Bind-n-Seq
Form: RNA
Sample: in vitro
Concentration: 365 nM
Setting: natural RNA segment, single round, ends assumed
Baseline: no-protein control
Reading: higher = stronger binding
Constant ends, left off below: GGGAGUUCUACAGUCCGACGAUC … UGGAAUUCUCGGGUGCCAA
Construct (chain): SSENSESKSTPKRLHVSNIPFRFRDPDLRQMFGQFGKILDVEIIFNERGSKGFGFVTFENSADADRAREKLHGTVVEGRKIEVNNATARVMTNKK
| Strand | RBNS enrichment (R) |
| --- | --- |
| UCAGAGAAUCUAUGAAUAAUGGAAGCAUUAAUUGUUUUGAACAUGUAAAUAUAAAUCUGUCAGCCACUACAGCCAUCAAAAGAGAGCAUCUGGAAGAACAGCCAGCUUGG | 0.856 |
| UAGAAACACAUUAACUGGUUUACUCAUUGAGAAUCCAGCAUAUUUAAGAGGUGACCCUGUGUUUUUUGUGAUAUUGAGGCAUUCAUACAGAGCUGCAGUUAGACGGGGUU | 0.562 |
| CCCCCGAGUUGUGAAAGCUGCGACGUAGCAGUGACCUCAGCAGUCCCUAUGUUUUCCCCCUUUGAAAAUUUUUCUCAGUUAAAUUAAGCUACUGAUUUGAAUUUGUUUUU | 0.511 |
| CAGAUUGUCUGUGACACUCAAGCCCCUCUCAUUUUUAUCUGUCUACCUCCAUUCUGAAGAGGGAGGUUUUGGUGUCCCUGGUCCUCUGGGAAUAGAAGAUCCAUUUGUCU | 0.374 |
| GUUAGGUCAGCCAACUGGUUCUGCCUGUCGCCUUGCCACGGAGGAGGCUUCUAAUUAGCUGGAAAAGAGUAUUUUUCUAAUACGUUGCAAGGAUUAGCCAAAUCUUCUUA | 0.222 |
| CUUUUUUAAGUGAUGCAGACCUUAGUUUCUUUAGCCCCUUUAUUUUGAAUACAAUGCUACAUAUGAAUGUUGAAGCUGAUACAUUGCACAGUUCUGUAGACAUCACUACA | 1.32 |
| UGAAGAGAGGUGAAAGGCACACUUUCAACCUGUCAUUCAGCGUUUCUUUUGAGCUUAGUCAGCUGUACCUUUUCAAUUAGUUCUUUUUCAACCAAUGUGUCACUAAAAGU | 0.349 |
| UUCAGCUCCCUGAGAAGUAGCUCUUCCUCCAGGGCAUGGAAGGAUGGGAGGCCAGCAGGACCCUGCCCCAUGUGUCAGCUACCACAGAUUAAAGCUGUUACCGCACACGG | 0.342 |
| GAGAACUUUCUGGACGUCGAUGUUAUCUCAAAGGAAAGCUAUGCAUUGCUGCUUCUUUGUUACCUUGCUUAUGCUUUGCUUUAAUUAGGCCUCUCUCUCUCCCUCUCUCU | 0.43 |
| CCUUCAUUUUAACUGUUAUGUCAUACUGUUAUGUUGACAUAUUUCUUUAUAAGAGAAUAGAGGCAAAAGUAUAGAACUGAGGAUCAUUUGUAUUUUUGAGUUGGAAAUUA | 0.624 |
| UUUGUGAUCCUGAUAUGUCACAUAUAAUAGCUUUGUUACCUGGAGUAUUUGAUUAACCUAAACAGUUUAAGCAUUUUGAAUUAGUUGGAGUUUAAAUGGAUUACAUUUGG | 0.439 |
| GGUACAGAAUAAUUCUUCGUUGUGUGGCACUAACCCACACACUGCAGGACAUCGUUCUCCCUGGCUGCAUCCACUCAGUGCUGGGAGUAGUCCCCAGUUAUUAUGAAACC | 0.414 |

Some of these lines once more (block 2):
| Strand | log fluorescence [z-score] |
| --- | --- |
| TTAGGTATCCTTCTACTTTAGTGCTAG | 0.314 |
| TTAGGTATCGACACTGGGTCAGTGCTA | 2.23 |
| GACGGACTGGGGTTTCGCGACGTGCTA | -0.298 |
| TTACGTATCCTTATCCTTTAGTGCTAG | 1.1 |
| TTGGGTATCGGTATCGGTTAGTGCTAG | 9.24 |
| GAGACTTTGCTCTGTGCATAGGTGCTA | -0.18 |
